Published values gathered from unrelated publications.
Each numbered part is a random draw from the data of one study; scales do not carry over between parts.
Chain of UniProt Q8N568 (whole entry, looked up): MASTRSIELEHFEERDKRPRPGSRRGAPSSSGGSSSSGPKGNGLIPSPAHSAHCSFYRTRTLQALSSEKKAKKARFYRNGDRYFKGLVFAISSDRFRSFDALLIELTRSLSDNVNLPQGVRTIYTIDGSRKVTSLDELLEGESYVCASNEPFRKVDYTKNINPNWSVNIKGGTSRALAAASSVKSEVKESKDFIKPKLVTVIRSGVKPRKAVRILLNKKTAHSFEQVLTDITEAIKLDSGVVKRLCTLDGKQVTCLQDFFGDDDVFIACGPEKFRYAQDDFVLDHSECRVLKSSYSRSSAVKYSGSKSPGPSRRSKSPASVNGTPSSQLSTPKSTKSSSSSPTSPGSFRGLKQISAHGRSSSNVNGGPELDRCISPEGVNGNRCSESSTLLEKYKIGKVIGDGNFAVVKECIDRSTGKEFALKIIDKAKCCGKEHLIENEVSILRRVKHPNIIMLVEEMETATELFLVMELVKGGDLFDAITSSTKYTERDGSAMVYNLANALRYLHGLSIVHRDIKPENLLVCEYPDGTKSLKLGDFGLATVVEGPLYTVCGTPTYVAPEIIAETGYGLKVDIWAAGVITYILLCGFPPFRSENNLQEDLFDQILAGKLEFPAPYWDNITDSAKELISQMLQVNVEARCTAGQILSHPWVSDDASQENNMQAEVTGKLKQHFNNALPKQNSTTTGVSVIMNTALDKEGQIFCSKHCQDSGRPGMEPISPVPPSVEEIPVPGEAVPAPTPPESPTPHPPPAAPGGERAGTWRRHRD
Chain of UniProt Q59H18 (whole entry, looked up): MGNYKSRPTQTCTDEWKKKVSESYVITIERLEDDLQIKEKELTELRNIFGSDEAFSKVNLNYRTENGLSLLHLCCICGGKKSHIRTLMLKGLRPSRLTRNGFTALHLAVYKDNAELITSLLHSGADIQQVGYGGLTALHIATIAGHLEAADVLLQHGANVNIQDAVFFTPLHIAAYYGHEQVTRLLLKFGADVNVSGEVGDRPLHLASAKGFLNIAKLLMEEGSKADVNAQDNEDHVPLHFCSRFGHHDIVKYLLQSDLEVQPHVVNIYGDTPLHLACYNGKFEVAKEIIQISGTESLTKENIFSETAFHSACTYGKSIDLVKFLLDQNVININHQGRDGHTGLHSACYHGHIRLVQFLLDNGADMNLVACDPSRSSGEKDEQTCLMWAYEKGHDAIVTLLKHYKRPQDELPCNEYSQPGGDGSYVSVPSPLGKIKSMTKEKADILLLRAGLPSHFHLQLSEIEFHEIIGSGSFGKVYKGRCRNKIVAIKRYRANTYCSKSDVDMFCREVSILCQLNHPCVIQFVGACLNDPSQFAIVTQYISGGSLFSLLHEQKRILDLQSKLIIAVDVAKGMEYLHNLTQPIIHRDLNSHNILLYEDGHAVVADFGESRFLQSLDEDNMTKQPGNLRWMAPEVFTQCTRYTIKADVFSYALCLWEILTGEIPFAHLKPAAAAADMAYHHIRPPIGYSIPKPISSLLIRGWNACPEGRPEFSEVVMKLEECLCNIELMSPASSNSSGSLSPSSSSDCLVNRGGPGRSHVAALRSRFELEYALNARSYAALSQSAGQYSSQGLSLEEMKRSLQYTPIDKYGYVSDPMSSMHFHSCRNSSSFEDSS
Chain of UniProt Q92772 (whole entry, looked up): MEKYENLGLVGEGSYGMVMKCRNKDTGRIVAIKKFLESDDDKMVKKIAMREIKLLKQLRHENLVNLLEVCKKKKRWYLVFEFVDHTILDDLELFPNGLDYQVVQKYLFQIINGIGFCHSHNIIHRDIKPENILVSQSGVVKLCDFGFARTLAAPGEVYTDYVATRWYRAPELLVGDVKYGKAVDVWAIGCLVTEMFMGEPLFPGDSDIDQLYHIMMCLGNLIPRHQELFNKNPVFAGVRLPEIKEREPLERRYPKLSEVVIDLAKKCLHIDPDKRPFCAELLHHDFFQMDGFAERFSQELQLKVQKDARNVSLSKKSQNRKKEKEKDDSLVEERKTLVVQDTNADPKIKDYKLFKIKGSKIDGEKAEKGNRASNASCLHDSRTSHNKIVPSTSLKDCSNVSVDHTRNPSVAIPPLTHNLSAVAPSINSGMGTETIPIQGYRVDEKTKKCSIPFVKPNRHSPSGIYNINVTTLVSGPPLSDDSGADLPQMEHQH
Chain of UniProt Q96GD4 (whole entry, looked up): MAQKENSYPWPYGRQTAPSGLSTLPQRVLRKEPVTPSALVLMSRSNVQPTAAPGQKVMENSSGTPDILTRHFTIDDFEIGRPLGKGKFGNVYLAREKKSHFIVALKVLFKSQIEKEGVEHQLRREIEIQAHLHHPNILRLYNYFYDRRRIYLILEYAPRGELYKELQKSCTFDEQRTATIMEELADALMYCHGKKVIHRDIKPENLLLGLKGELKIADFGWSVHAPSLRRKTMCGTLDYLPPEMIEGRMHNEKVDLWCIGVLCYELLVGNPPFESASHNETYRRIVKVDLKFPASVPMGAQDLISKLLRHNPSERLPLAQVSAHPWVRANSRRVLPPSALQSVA

Sample 1
SMILES: Cc1c(NC(=O)c2cc(C(N)=O)nc3cc(F)ccc23)c(C(F)(F)F)nn1Cc1ccc(C#N)cc1
Technique: competition with immobilised ligand
Tested at: 1 µM
Endpoint: remaining binding
Serine/threonine-protein kinase TNNI3K (TNNI3K, Homo sapiens, UniProt Q59H18); cell-free assay: 100%
Aurora kinase B (AURKB, Homo sapiens, UniProt Q96GD4); cell-free assay: 72%
Epidermal growth factor receptor (EGFR, Homo sapiens, UniProt P00533, A750P/del747-749); cell-free assay: 91%
Serine/threonine-protein kinase DCLK2 (DCLK2, Homo sapiens, UniProt Q8N568); cell-free assay: 82%
Cyclin-dependent kinase-like 2 (CDKL2, Homo sapiens, UniProt Q92772); binding: 92%

Sample 2
Species: mouse
Medium: microsomes or S9
Tested at: 2 µM
Time: 0.5 h
Endpoint: remaining compound
Cc1csc(C2=C(N)N(CC(C)C)CC2=O)n1: 26.6%
COc1ccc(C2=C(c3ccc(F)cc3F)c3ccc(OCCCN4CCN(S(C)(=O)=O)CC4)cc3C2=O)cn1: 14.3%
CN(C)c1nc(N)nc(CNc2nccc(C3CCCC3)n2)n1: 0.418%
O=C(CN1N=C(c2ccccc2)Cn2c(cc3ccccc32)C1=O)N1CCN2CCCC2C1 (stereo not drawn): 2.11%
O=C(NCCNC1=NS(=O)(=O)c2ccccc21)c1cccc(Br)c1: 66.6%
CC(C)n1nc(CNc2ccc(Cl)cc2)[nH]c1=O: 90.6%
Cn1cc(C(=O)Nc2ccc(C#N)cc2)c2ccccc2c1=O: 47.4%

Sample 3
Target: Serine/threonine-protein kinase 16 (STK16, Homo sapiens, UniProt O75716)
Chain of UniProt O75716 (whole entry, looked up): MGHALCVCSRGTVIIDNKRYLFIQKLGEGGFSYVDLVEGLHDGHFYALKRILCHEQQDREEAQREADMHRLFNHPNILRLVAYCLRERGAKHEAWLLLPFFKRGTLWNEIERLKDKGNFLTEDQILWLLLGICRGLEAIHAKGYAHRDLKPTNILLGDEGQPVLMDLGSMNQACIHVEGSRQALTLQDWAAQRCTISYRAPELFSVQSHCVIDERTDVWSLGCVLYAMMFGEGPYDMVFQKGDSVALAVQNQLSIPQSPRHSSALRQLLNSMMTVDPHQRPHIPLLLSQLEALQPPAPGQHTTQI
Read-out: enzyme activity
Action: inhibitor
Tested at: 0.5 µM
Reference: control
Endpoint: remaining activity
CN(C)c1ccc(C=C2C(=O)Nc3ccccc32)cc1: 87.9%
Nc1ncnc2n[nH]c(Nc3ccc(F)cc3)c12: 108%
COc1ccc(OC)c2c(=S)c3ccccc3[nH]c12: 90%
OCC(O)CCON=C1C(c2c(O)[nH]c3ccccc23)=Nc2ccccc21 (stereo not drawn): 12.7%
COc1cc2ncnc(Nc3ccc(Oc4ccccc4)cc3)c2cc1OC: 107%
Cc1cccc(-c2[nH]c(C(C)(C)C)nc2-c2ccc3c(c2)OCO3)n1: 90.1%
N#CC(C#N)=C(N)/C(C#N)=C/c1ccc(O)cc1: 109%
O=S(=O)(c1cccc2cnccc12)N1CCCNCC1: 91.7%
Cc1ccc(NC(=O)c2ccc(CN3CCN(C)CC3)cc2)cc1Nc1nc(-c2cccnc2)cs1: 103%
COc1ccc(CNC(=O)Nc2ncc([N+](=O)[O-])s2)cc1: 99.9%
COc1cc2ncnc(Nc3ccc(F)c(Cl)c3)c2cc1OCCCN1CCOCC1: 96.8%

Sample 4
Organism: Sarcocystis neurona
Read-out: parasite growth
Tested at: 10 µM
Time: 96 h
Setting: first screen
Reference: untreated
Endpoint: log2 fold change
[H]/N=C(/NCCCCC)N/N=C/c1c[nH]c2ccc(OC)cc12: -5.98
CC1=C(/C=C/C(C)=C/C=C/C(C)=C/C(=O)O)C(C)(C)CCC1: 0.43
COc1ccc2[nH]c([S+]([O-])Cc3ncc(C)c(OC)c3C)nc2c1 (stereo not drawn): 0.12
c1ccc2[nH]c(-c3cscn3)nc2c1: 1.88

Excerpt of the above (sample 2):
Cn1cc(C(=O)Nc2ccc(C#N)cc2)c2ccccc2c1=O: 47.4%
Cc1csc(C2=C(N)N(CC(C)C)CC2=O)n1: 26.6%
